Assay results from different studies.
Compare with care: the assays were run in different laboratories. Values joined by “and” are separate records of one study, mostly repeats; a detail may differ. ± marks the error that the study gave. Square brackets hold non-standard residues; d marks the D form. Ends that are not written are not given here.
B1: UGT1A9 (Homo sapiens, UniProt O60656); chain GKLLVVPMDGSHWFTMRSVVEKLILRGHEVVVVMPEVSWQLGRSLNCTVKTYSTSYTLEDLDREFKAFAHAQWKAQVRSIYSLLMGSYNDIFDLFFSNCRSLFKDKKLVEYLKESSFDAVFLDPFDNCGLIVAKYFSLPSVVFARGILCHYLEEGAQCPAPLSYVPRILLGFSDAMTFKERVRNHIMHLEEHLLCHRFFKNALEIASEILQTPVTEYDLYSHTSIWLLRTDFVLDYPKPVMPNMIFIGGINCHQGKPLPMEFEAYINASGEHGIVVFSLGSMVSEIPEKKAMAIADALGKIPQTVLWRYTGTRPSNLANNTILVKWLPQNDLLGHPMTRAFITHAGSHGVYESICNGVPMVMMPLFGDQMDNAKRMETKGAGVTLNVLEMTSEDLENALKAVINDKSYKENIMRLSSLHKDRPVEPLDLAVFWVEFVMRHKGAPHLRPAAHDLTWYQYHSLDVIGFLLAVVLTVAFITFKCCAYGYRKCLGKKGRVKKAHKSKTH
B2: CANX (Canis lupus familiaris, UniProt P24643); sequence looked up; chain HEGHDDDMIDIEDDLDDVIEEVEDSKSKPDTSAPTSPKVTYKAPVPTGEVYFADSFDRGTLSGWILSKAKKDDTDDEIAKYDGKWEVDEMKETKLPGDKGLVLMSRAKHHAISAKLNKPFLFDTKPLIVQYEVNFQNGIECGGAYVKLLSKTPELNLDQFHDKTPYTIMFGPDKCGEDYKLHFIFRHKNPKTGVYEEKHAKRPDADLKTYFTDKKTHLYTLILNPDNSFEILVDQSIVNSGNLLNDMTPPVNPSREIEDPEDQKPEDWDERPKIPDPDAVKPDDWNEDAPAKIPDEEATKPDGWLDDEPEYVPDPDAEKPEDWDEDMDGEWEAPQIANPKCESAPGCGVWQRPMIDNPNYKGKWKPPMIDNPNYQGIWKPRKIPNPDFFEDLEPFKMTPFSAIGLELWSMTSDIFFDNFIVCGDRRVVDDWANDGWGLKKAADGAAEPGVVGQMIEAAEERPWLWVVYVLTVALPVFLVILFCCSGKKQSSPVEYKKTDAPQPDVKEEEEEKEEEKDKGDEEEEGEEKLEEKQKSDAEEDGGTASQEEDDRKPKAEEDEILNRSPRNRKPRRE
B3: Por (Rattus norvegicus, UniProt P00388); chain MGDSHEDTSATMPEAVAEEVSLFSTTDMVLFSLIVGVLTYWFIFRKKKEEIPEFSKIQTTAPPVKESSFVEKMKKTGRNIIVFYGSQTGTAEEFANRLSKDAHRYGMRGMSADPEEYDLADLSSLPEIDKSLVVFCMATYGEGDPTDNAQDFYDWLQETDVDLTGVKFAVFGLGNKTYEHFNAMGKYVDQRLEQLGAQRIFELGLGDDDGNLEEDFITWREQFWPAVCEFFGVEATGEESSIRQYELVVHEDMDVAKVYTGEMGRLKSYENQKPPFDAKNPFLAAVTANRKLNQGTERHLMHLELDISDSKIRYESGDHVAVYPANDSALVNQIGEILGADLDVIMSLNNLDEESNKKHPFPCPTTYRTALTYYLDITNPPRTNVLYELAQYASEPSEQEHLHKMASSSGEGKELYLSWVVEARRHILAILQDYPSLRPPIDHLCELLPRLQARYYSIASSSKVHPNSVHICAVAVEYEAKSGRVNKGVATSWLRAKEPAGENGGRALVPMFVRKSQFRLPFKSTTPVIMVGPGTGIAPFMGFIQERAWLREQGKEVGETLLYYGCRRSDEDYLYREELARFHKDGALTQLNVAFSREQAHKVYVQHLLKRDREHLWKLIHEGGAHIYVCGDARNMAKDVQNTFYDIVAEFGPMEHTQAVDYVKKLMTKGRYSLDVWS
UniProt P11532, sequence (whole entry, looked up): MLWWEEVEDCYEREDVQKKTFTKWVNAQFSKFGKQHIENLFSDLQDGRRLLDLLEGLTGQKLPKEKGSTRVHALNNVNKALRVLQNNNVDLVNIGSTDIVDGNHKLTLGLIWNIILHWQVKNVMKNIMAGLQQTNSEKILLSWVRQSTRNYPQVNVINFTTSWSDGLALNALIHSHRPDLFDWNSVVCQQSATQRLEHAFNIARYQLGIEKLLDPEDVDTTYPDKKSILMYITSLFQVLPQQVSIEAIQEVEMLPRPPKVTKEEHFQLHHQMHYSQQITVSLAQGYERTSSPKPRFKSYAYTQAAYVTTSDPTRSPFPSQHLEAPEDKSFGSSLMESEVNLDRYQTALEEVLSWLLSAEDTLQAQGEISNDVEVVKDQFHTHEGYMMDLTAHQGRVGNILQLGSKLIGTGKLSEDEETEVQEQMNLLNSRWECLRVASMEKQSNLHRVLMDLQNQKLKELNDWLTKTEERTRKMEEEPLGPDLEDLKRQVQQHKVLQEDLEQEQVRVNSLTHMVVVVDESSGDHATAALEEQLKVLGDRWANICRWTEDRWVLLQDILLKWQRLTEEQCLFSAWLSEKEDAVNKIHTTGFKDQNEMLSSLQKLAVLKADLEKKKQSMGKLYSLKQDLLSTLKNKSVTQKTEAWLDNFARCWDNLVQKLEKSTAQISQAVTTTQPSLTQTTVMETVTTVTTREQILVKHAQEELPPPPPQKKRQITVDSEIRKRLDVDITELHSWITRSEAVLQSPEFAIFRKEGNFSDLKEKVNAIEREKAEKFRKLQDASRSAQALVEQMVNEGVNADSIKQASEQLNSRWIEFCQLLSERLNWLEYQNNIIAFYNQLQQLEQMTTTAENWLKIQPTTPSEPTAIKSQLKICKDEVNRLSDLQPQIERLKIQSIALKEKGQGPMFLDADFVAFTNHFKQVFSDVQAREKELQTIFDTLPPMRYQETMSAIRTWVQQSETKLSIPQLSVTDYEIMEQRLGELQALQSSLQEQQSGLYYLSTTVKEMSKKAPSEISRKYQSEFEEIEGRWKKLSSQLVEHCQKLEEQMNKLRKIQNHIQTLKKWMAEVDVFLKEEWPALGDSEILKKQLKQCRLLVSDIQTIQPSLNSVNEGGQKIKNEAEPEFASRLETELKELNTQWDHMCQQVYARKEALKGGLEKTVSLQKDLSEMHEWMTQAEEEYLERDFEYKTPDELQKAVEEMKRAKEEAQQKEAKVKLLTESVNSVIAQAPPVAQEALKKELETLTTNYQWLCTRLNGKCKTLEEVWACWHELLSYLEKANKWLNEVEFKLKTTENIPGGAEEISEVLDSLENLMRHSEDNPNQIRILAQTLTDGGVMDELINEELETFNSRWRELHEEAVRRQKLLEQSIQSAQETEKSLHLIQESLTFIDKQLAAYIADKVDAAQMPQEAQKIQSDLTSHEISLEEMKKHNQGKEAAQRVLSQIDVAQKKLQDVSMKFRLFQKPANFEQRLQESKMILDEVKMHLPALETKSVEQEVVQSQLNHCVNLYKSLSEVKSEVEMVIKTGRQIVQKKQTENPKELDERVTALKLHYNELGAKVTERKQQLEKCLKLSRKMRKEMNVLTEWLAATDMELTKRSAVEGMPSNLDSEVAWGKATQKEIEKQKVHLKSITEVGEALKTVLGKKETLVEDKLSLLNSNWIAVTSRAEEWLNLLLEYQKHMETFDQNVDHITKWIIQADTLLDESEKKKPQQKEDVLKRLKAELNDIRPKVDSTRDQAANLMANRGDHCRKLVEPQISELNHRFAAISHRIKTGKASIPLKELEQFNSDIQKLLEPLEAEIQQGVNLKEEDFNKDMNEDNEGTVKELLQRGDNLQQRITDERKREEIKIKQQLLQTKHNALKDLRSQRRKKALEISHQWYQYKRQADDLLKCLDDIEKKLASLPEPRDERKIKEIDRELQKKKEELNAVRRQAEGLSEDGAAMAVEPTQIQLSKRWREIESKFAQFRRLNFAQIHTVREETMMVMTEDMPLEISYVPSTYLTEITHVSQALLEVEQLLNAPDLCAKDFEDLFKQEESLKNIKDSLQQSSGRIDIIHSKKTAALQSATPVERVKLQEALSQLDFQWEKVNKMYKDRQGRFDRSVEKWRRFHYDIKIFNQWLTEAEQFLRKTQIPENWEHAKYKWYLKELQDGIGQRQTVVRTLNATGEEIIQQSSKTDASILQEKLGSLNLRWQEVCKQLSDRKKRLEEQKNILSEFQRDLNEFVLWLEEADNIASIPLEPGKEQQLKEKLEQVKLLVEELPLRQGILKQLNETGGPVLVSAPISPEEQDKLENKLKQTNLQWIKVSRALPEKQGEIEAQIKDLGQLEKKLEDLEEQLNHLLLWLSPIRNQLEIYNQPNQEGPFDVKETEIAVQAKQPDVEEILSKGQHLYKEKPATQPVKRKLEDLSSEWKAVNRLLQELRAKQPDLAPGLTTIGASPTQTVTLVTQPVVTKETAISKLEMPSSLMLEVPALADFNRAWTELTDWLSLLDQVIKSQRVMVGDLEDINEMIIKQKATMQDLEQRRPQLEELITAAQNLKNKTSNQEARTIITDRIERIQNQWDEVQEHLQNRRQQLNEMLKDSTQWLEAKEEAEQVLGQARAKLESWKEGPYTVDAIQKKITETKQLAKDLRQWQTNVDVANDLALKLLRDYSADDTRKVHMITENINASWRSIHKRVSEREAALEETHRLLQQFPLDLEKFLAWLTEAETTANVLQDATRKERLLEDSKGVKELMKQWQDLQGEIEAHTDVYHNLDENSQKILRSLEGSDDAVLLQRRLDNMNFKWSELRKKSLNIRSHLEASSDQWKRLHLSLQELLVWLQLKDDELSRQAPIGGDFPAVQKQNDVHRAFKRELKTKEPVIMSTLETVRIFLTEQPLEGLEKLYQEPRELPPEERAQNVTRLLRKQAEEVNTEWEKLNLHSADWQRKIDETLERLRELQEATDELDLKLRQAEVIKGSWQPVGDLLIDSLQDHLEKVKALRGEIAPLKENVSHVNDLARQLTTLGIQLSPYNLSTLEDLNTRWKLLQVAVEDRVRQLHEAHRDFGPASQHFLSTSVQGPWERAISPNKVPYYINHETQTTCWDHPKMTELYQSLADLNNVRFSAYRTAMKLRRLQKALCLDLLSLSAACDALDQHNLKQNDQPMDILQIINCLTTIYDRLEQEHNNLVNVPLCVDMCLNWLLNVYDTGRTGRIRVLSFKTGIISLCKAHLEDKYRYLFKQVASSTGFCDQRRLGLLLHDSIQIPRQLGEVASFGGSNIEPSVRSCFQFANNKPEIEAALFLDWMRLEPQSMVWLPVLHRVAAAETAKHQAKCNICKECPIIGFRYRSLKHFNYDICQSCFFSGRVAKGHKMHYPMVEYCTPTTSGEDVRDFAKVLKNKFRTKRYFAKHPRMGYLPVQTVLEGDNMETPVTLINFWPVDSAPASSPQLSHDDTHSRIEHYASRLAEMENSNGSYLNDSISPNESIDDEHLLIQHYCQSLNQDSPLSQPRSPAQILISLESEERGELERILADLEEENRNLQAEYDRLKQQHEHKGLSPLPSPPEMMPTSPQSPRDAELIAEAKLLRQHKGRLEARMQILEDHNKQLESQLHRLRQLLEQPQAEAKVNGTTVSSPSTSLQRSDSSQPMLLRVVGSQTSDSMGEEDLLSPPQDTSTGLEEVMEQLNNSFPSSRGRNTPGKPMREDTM
UniProt P29350, sequence (whole entry, unmodified, looked up): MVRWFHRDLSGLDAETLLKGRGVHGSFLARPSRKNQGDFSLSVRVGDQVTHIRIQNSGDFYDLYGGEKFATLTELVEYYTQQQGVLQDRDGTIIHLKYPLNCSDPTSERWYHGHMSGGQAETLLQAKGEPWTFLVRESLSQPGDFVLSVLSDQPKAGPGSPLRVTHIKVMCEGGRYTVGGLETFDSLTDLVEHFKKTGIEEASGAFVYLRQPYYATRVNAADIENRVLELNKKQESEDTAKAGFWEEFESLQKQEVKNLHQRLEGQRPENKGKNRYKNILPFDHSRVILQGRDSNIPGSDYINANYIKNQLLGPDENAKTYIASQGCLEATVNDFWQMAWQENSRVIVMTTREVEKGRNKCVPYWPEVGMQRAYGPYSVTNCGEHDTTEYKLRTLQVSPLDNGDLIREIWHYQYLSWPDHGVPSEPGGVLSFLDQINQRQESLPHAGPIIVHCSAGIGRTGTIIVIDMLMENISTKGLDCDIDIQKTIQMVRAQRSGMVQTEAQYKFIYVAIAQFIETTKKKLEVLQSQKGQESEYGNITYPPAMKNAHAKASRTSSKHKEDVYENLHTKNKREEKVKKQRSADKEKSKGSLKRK
UniProt P00178, sequence (whole entry, looked up): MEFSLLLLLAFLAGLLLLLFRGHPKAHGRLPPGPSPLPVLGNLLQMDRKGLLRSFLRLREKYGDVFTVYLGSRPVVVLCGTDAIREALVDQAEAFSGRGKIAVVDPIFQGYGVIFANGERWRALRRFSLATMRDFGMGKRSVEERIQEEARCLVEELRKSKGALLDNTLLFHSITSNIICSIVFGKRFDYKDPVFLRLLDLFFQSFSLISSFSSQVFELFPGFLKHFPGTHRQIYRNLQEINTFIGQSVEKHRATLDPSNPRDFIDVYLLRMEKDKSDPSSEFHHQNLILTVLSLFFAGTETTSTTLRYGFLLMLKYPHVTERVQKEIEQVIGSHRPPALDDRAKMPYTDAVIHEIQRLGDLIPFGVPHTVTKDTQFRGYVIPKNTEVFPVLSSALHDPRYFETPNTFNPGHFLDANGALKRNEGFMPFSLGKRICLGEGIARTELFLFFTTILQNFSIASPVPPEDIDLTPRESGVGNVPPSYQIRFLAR

Under “molecule per partner”, `SERPINE1 mature (Homo sapiens, UniProt P05121)` is recorded as 1 (HABP2 (Homo sapiens); co-IP; bronchoalveolar lavage fluid).
For `Lamb1 (Mus musculus, UniProt P02469)`, “laminin extracted fraction” read greater than 50% (laminin/entactin complex (Mus musculus); competitive extraction; tissue matrix; 15 µM).
With `TRPC1 (Homo sapiens, UniProt P48995-2)` the TRPC1 current was 22 pA (STIM1 K684D/K685D (UniProt Q13586); patch clamp; HEK; added: carbachol 100 µM).
For `B1 (UGT1A9)`, the Vmax/Km was 8.3 µL/min/mg (CCOc1ccc(O)cc1; steady-state kinetics; pH 7.4, 37 °C).
`DLAT L2 domain, lipoylated` has a ΔH of -21.7 kcal/mol (Pdk2 T302A (Rattus norvegicus); ITC; 30 °C, single-site, no nucleotide).
The relative coprecipitation of `B2 (CANX)` is reported as 6.3 fold (ATP1B2 (Homo sapiens, UniProt P14415); co-IP; MDCK, lysate; pH 7.5, 4 °C, NaCl 150 mM; baseline: YFP-β1, higher = more calnexin coprecipitated).
`B3 (Por)` — result for “rate constant k2”: 0.25 s⁻¹ (CYP2B4 (Oryctolagus cuniculus, UniProt P00178); first electron transfer, stopped-flow; nanodiscs; 25 °C, slow phase, anaerobic).
`DTNA alpha-dystrobrevin-1` gave a co-IP signal of 2.2 fold and 3 fold and 2.7 fold and 3.3 fold (DMD 2980-3685 (Homo sapiens, UniProt P11532); co-IP; reticulocyte lysate; not purified; baseline: control without antibody, higher = more co-precipitation).
The ΔH of `ETDKE[pY][pY]TVKD (JAK1 1029-1039; pY1034/pY1035; pY = N[C@@H](Cc1ccc(OP(=O)(O)O)cc1)C(=O)O)` is reported as -16.6 ± 0.4 kcal/mol (PTPN6 243-530 Q252A/C453S (Homo sapiens, UniProt P29350); ITC; peptide).

Repeated from above:
Under “molecule per partner”, `SERPINE1 mature (Homo sapiens, UniProt P05121)` is recorded as 1 (HABP2 (Homo sapiens); co-IP; bronchoalveolar lavage fluid).
